Experimental data gathered from unrelated publications.
Each line is one published result; not all experiments were run side by side.
Organism: Escherichia coli

For CO[C@@H](C(N)=O)[C@H](NC(=O)c1ccc(NC(=O)[C@@H](N)Cc2ccccc2)cc1)C(=O)Nc1ccc(C(=O)Nc2ccc(C(=O)Nc3ccc(C(=O)O)c(O)c3OC(C)C)c(O)c2OC(C)C)cc1, the MIC was 0.031 µg/mL (empty cosmid vector; 16 h, 37 °C).
With CC(C)C[C@@H]1NC(=O)[C@H](CCCNC(=N)N)NC(=O)[C@H](CCCNC(=N)N)NC(=O)[C@@H](NC(=O)[C@@H](N)CCC(=O)O)CSSC[C@@H](C(=O)N[C@@H](CCCNC(=N)N)C(=O)NCC(=O)N[C@@H](CCCNC(=N)N)C(N)=O)NC(=O)[C@H](Cc2ccc(O)cc2)NC(=O)[C@H]([C@@H](C)O)NC(=O)[C@H](C(C)C)NC(=O)[C@@H]2CSSC[C@H](NC1=O)C(=O)N[C@@H](Cc1ccc(O)cc1)C(=O)N[C@@H](CCCCN)C(=O)N[C@@H](CCC(N)=O)C(=O)N[C@@H](CCCNC(=N)N)C(=O)N2 the MIC was 25 µM (bacterial growth, broth dilution, OD600; DH5α, LB medium; 16 h, 37 °C).
CC1(C)[C@H](NC(=O)/C(=N\OCc2cc(=O)c(O)cn2O)c2csc(N)n2)C(=O)N1OS(=O)(=O)O has an MIC of 1 µg/mL (agar dilution; 08-85 mcr-1).
CC(C)C[C@H](NC(=O)[C@@H](NC(=O)[C@H](CCCCN)NC(=O)[C@H](CCCCN)NC(=O)[C@H](CC(C)C)NC(=O)[C@H](Cc1c[nH]c2ccccc12)NC(=O)[C@H](CCCCN)NC(=O)[C@H](CC(C)C)NC(=O)[C@H](CC(C)C)NC(=O)[C@H](CCCCN)NC(=O)[C@H](CCCCN)NC(=O)[C@@H](N)C(C)C)C(C)C)C(N)=O has an MIC of 64 µM (24 h, 37 °C, Mueller-Hinton broth, human serum 10%).
CC[C@H](C)[C@H](NC(=O)[C@@H](CCCNC(=N)N)NC(=O)[C@H](CCCNC(=N)N)NC(=O)[C@@H]1CCCN1C(=O)[C@@H]1CCCN1C(=O)[C@H](CCCNC(=N)N)NC(=O)[C@@H]1CCCN1C(=O)[C@H](CCCNC(=N)N)NC(=O)[C@@H]1CCCN1C(=O)[C@H](CC(C)C)NC(=O)[C@H](Cc1ccc(O)c([N+](=O)[O-])c1)NC(=O)[C@@H]1CCCN1C(=O)[C@@H]1CCCN1C(=O)[C@H](CCCCN)NC(=O)[C@H](CC(=O)O)NC(=O)[C@@H](N)C(C)C)C(=O)N[C@@H](Cc1ccc(O)cc1)C(=O)N[C@@H](CC(N)=O)C(=O)N[C@H](CCCNC(=N)N)C(N)=O has an MIC of 8 µg/mL (broth microdilution; BW25113; 18 h, 37 °C, 25% MHB2).
For CCCCCCCC(=O)N[C@@H](CCN)C(=O)N[C@H](C(=O)N[C@@H](CCN)C(=O)N[C@H]1CCNC(=O)[C@H]([C@@H](C)O)NC(=O)[C@H](CCN)NC(=O)[C@H](CCN)NC(=O)[C@H](Cc2ccc(Br)cc2)NC(=O)[C@@H](CC(C)C)NC(=O)[C@H](CCN)NC1=O)[C@@H](C)O, the MIC was 0.25 to 0.5 µg/mL (broth microdilution; ATCC 25922, colistin-susceptible).
For CC(C)C[C@@H](NC(=O)[C@@H](CCCNC(=N)N)NC(=O)[C@H](N)CCCNC(=N)N)C(=O)N[C@H](CC(C)C)C(=O)N[C@H](CCCNC(=N)N)C(=O)N[C@H](CCCCN)C(=O)N[C@H](CC(C)C)C(=O)N[C@H](CCCCN)C(=O)NCC(=O)N[C@H](CCCCN)C(=O)N[C@H](CCCCN)C(=O)N[C@H](CC(C)C)C(=O)N[C@H](Cc1ccc(O)cc1)C(=O)N[C@H](CC(C)C)C(=O)N[C@H](Cc1ccc(O)cc1)C(=O)N[C@H](Cc1ccccc1)C(=O)N[C@H](CCCCN)C(=O)N[C@H](CC(C)C)C(=O)N[C@H](CCC(N)=O)C(=O)N[C@H](CC(C)C)C(=O)N[C@H](CC(C)C)C(=O)N[C@H](CCCCN)C(=O)N[C@H](CCCCN)C(N)=O, the MIC was 16 µM (KCTC 1682, Mueller-Hinton broth; added: 2.5 mM CaCl2).
With CC[C@H](C)[C@H](NC(=O)[C@@H](CCCNC(=N)N)NC(=O)[C@H](CCCNC(=N)N)NC(=O)[C@@H]1CCCN1C(=O)[C@@H]1CCCN1C(=O)[C@H](CCCNC(=N)N)NC(=O)[C@@H]1CCCN1C(=O)[C@H](CCCNC(=N)N)NC(=O)[C@@H]1CCCN1C(=O)[C@H](CC(C)C)NC(=O)[C@H](Cc1ccc(O)cc1)NC(=O)[C@H](Cc1ccc(O)cc1)NC(=O)[C@@H]1CCCN1C(=O)[C@H](CCCCN)NC(=O)[C@H](CC(=O)O)NC(=O)[C@@H](N)C(C)C)C(=O)N[C@@H](Cc1ccc(O)cc1)C(=O)N[C@@H](CC(N)=O)C(=O)N[C@H](CCCNC(=N)N)C(N)=O the MIC was 16 µg/mL (broth microdilution; BW25113; 18 h, 37 °C, 25% MHB2).
CCn1c(-c2ccc(F)cc2)c(-c2ccc(F)cc2)n(CCOC)c1=[Se] has an MIC of over 40 µM (broth microdilution; carbapenem-resistant BAA-2140; 24 h).
N=C(N)NCCC[C@H](NC(=O)[C@H](CCCNC(=N)N)NC(=O)[C@H](Cc1ccccc1)NC(=O)[C@H](CO)NC(=O)[C@H](Cc1ccccc1)NC(=O)[C@H](Cc1c[nH]c2ccccc12)NC(=O)[C@H](Cc1ccccc1)NC(=O)[C@H](CO)NC(=O)[C@H](Cc1ccccc1)NC(=O)[C@H](CCCNC(=N)N)NC(=O)[C@@H](N)CCCNC(=N)N)C(N)=O has an MIC of 128 µM (UB1005; 24 h, 37 °C).
With CC[C@H](C)[C@H](NC(=O)[C@H](C)NC(=O)CNC(=O)[C@H](C)NC(=O)[C@H](CCCCN)NC(=O)[C@H](CO)NC(=O)[C@H](C)NC(=O)[C@H](CCSC)NC(=O)CN)C(=O)N[C@@H](C)C(=O)NCC(=O)N[C@@H](CCCCN)C(=O)N[C@H](C(=O)N[C@@H](C)C(=O)N[C@@H](CCCCN)C(=O)N[C@H](C(=O)N[C@@H](C)C(=O)N[C@@H](CC(C)C)C(=O)N[C@@H](CCCCN)C(=O)N[C@@H](C)C(=O)N[C@@H](CC(C)C)C(N)=O)C(C)C)[C@@H](C)CC the MIC was 2.5 µg/mL (0370, wild type, minimal salts medium; 18 h, 37 °C).
C[C@H](CS)C(=O)Nc1cccc(-c2nn[nH]n2)c1 gave an MIC of over 64 µg/mL (DH5a pET28-lacUV5-VIM-2; 50 µM, no meropenem).
With CC[C@H](C)[C@H](NC(=O)[C@@H](NC(=O)[C@H](CCCCN)NC(=O)[C@H](CCCCN)NC(=O)[C@@H](NC(=O)[C@H](Cc1c[nH]c2ccccc12)NC(=O)[C@H](CCCCN)NC(=O)[C@@H](NC(=O)[C@H](CC(C)C)NC(=O)[C@H](CCCCN)NC(=O)[C@H](CCCCN)NC(=O)[C@@H](N)C(C)C)[C@@H](C)CC)[C@@H](C)CC)C(C)C)C(N)=O the MIC was 32 µM (24 h, 37 °C, Mueller-Hinton broth, no additive).
The MIC of CC[C@H](C)[C@H](NC(=O)[C@@H](CCCNC(=N)N)NC(=O)[C@H](CCCNC(=N)N)NC(=O)[C@@H]1CCCN1C(=O)[C@@H]1CCCN1C(=O)[C@H](CCCNC(=N)N)NC(=O)[C@@H]1CCCN1C(=O)[C@H](CCCNC(=N)N)NC(=O)[C@@H]1CCCN1C(=O)[C@H](CC(C)C)NC(=O)[C@H](Cc1ccc(O)cc1)NC(=O)[C@@H]1CCCN1C(=O)[C@@H]1CCCN1C(=O)[C@H](CCCCN)NC(=O)[C@H](CC(=O)O)NC(=O)[C@@H](N)C(C)C)C(=O)N[C@@H](Cc1ccc(O)c([N+](=O)[O-])c1)C(=O)N[C@@H](CC(N)=O)C(=O)N[C@H](CCCNC(=N)N)C(N)=O is reported as 16 µg/mL (broth microdilution; ATCC 25922; 18 h, 37 °C, 25% MHB2).
For CC[C@H](C)[C@H](NC(=O)[C@H](Cc1c[nH]c2ccccc12)NC(=O)c1ccccc1)C(=O)N[C@@H](CCCNC(=N)N)C(=O)N[C@@H](Cc1ccc(O)cc1)C(=O)N[C@@H](CCCCN)C(=O)N[C@@H](Cc1c[nH]c2ccccc12)C(=O)N1CCC[C@@H]1C(=O)N[C@@H](CCCNC(=N)N)C(=O)N[C@@H](CCCCN)C(=O)N[C@@H](CCCCN)C(=O)N[C@H](C(=O)N[C@@H](CCCNC(=N)N)C(=O)N[C@@H](Cc1ccc(O)cc1)C(=O)N[C@@H](Cc1c[nH]c2ccccc12)C(=O)N[C@H](C(=O)NCC(=O)N1CCC[C@H]1C(N)=O)[C@@H](C)O)C(C)C, the MIC was over 100 µM (DH5α; 16 h, 37 °C).
For CC[C@H](C)[C@H](NC(=O)[C@@H](CCCNC(=N)N)NC(=O)[C@H](CCCNC(=N)N)NC(=O)[C@@H]1CCCN1C(=O)[C@@H]1CCCN1C(=O)[C@H](Cc1ccccc1)NC(=O)[C@@H]1CCCN1C(=O)[C@H](CCCNC(=N)N)NC(=O)[C@@H]1CCCN1C(=O)[C@H](CC(C)C)NC(=O)[C@H](Cc1ccc(O)cc1)NC(=O)[C@@H]1CCCN1C(=O)[C@@H]1CCCN1C(=O)[C@H](CCCCN)NC(=O)[C@H](CC(=O)O)NC(=O)[C@@H](N)C(C)C)C(=O)N[C@@H](Cc1ccc(O)cc1)C(=O)N[C@@H](CC(N)=O)C(=O)N[C@H](CCCNC(=N)N)C(N)=O, the MIC was 16 µg/mL (broth microdilution; ATCC 25922; 18 h, 37 °C, 25% MHB2).
C[C@H](NC(=O)CNC(=O)[C@@H]1CCCN1C(=O)[C@H](CO)NC(=O)CNC(=O)CN)C(=O)N[C@@H](CCCCN)C(=O)N[C@@H](CCCCN)C(=O)N[C@@H](CC(N)=O)C(=O)N[C@H](C(=O)N[C@@H](CCCCN)C(=O)N[C@@H](CO)C(=O)N[C@@H](C)C(=O)N[C@@H](CS)C(=O)NCC(=O)N[C@@H](CCCCN)C(=O)N[C@@H](C)C(=O)N[C@@H](CS)C(=O)N[C@@H](C)C(=O)N[C@@H](CS)C(=O)N[C@@H](Cc1c[nH]cn1)C(=O)O)[C@@H](C)O has an MIC of 141 µg/mL (broth microdilution; K88, Mueller-Hinton broth; 37 °C).
CC[C@H](C)[C@H](NC(=O)[C@@H](CCCNC(=N)N)NC(=O)[C@H](CCCNC(=N)N)NC(=O)[C@H](Cc1c[nH]cn1)NC(=O)[C@H](Cc1c[nH]c2ccccc12)NC(=O)[C@H](CCCNC(=N)N)NC(=O)[C@@H]1CCCN1C(=O)[C@H](CCCNC(=N)N)NC(=O)[C@@H]1CCCN1C(=O)[C@H](CC(C)C)NC(=O)[C@H](Cc1ccc(O)cc1)NC(=O)[C@@H]1CCCN1C(=O)[C@@H]1CCCN1C(=O)[C@H](CCCCN)NC(=O)[C@H](CC(=O)O)NC(=O)[C@@H](N)C(C)C)C(=O)N[C@@H](Cc1ccc(O)cc1)C(=O)N[C@@H](CC(N)=O)C(=O)N[C@H](CCCNC(=N)N)C(N)=O has an MIC of 16 µg/mL (broth microdilution; BW25113; 18 h, 37 °C, 25% MHB2).
CC(C)C[C@H](NC(=O)[C@H](CCCCN)NC(=O)[C@H](CC(C)C)NC(=O)[C@H](CCCCN)NC(=O)C1CCC=CCCC(NC(=O)[C@H](CCCCN)NC(=O)[C@H](CC(C)C)NC(=O)[C@H](CCCCN)NC(=O)[C@@H](N)CC(C)C)C(=O)N[C@@H](CCCCN)C(=O)N2CCC[C@@H]2C(=O)NCC(=O)N[C@@H](CCCCN)C(=O)N1)C(N)=O (stereo partly shown) has an MIC of 16 µM (broth microdilution; ATCC 25922, Mueller-Hinton broth; 18 h, 37 °C).

Repeated from above:
CC[C@H](C)[C@H](NC(=O)[C@@H](CCCNC(=N)N)NC(=O)[C@H](CCCNC(=N)N)NC(=O)[C@@H]1CCCN1C(=O)[C@@H]1CCCN1C(=O)[C@H](CCCNC(=N)N)NC(=O)[C@@H]1CCCN1C(=O)[C@H](CCCNC(=N)N)NC(=O)[C@@H]1CCCN1C(=O)[C@H](CC(C)C)NC(=O)[C@H](Cc1ccc(O)c([N+](=O)[O-])c1)NC(=O)[C@@H]1CCCN1C(=O)[C@@H]1CCCN1C(=O)[C@H](CCCCN)NC(=O)[C@H](CC(=O)O)NC(=O)[C@@H](N)C(C)C)C(=O)N[C@@H](Cc1ccc(O)cc1)C(=O)N[C@@H](CC(N)=O)C(=O)N[C@H](CCCNC(=N)N)C(N)=O has an MIC of 8 µg/mL (broth microdilution; BW25113; 18 h, 37 °C, 25% MHB2).
With CC[C@H](C)[C@H](NC(=O)[C@@H](CCCNC(=N)N)NC(=O)[C@H](CCCNC(=N)N)NC(=O)[C@@H]1CCCN1C(=O)[C@@H]1CCCN1C(=O)[C@H](CCCNC(=N)N)NC(=O)[C@@H]1CCCN1C(=O)[C@H](CCCNC(=N)N)NC(=O)[C@@H]1CCCN1C(=O)[C@H](CC(C)C)NC(=O)[C@H](Cc1ccc(O)cc1)NC(=O)[C@H](Cc1ccc(O)cc1)NC(=O)[C@@H]1CCCN1C(=O)[C@H](CCCCN)NC(=O)[C@H](CC(=O)O)NC(=O)[C@@H](N)C(C)C)C(=O)N[C@@H](Cc1ccc(O)cc1)C(=O)N[C@@H](CC(N)=O)C(=O)N[C@H](CCCNC(=N)N)C(N)=O the MIC was 16 µg/mL (broth microdilution; BW25113; 18 h, 37 °C, 25% MHB2).
